Experimental data of several laboratories.
Numbered parts are unrelated; each lists some results of a single study.

Study 1 — effect on: peptide-MHC binding; form: peptide; concentration: concentration not given; measurement: binding
Target: HLA class I histocompatibility antigen, A alpha chain, allele A*25:01 (Homo sapiens, UniProt P04439)
LLDDGWAGE: inactive
MMWEINGPK: inactive
RVACRDVEV: inactive
KQMSQPYAV: inactive
ARLSSPIVL: inactive
KQWIVAGAI: inactive
AEDLADHHV: inactive
SVMSTFFWE: inactive

Study 2 — target: UBE2D4 UBC core domain (UniProt Q9Y2X8); method: yeast two-hybrid; sample: yeast; setting: mostly zero background; reference: not given; direction: higher = stronger interaction; measurement: lacZ reporter activity
B1: RUFY1 RING domain (UniProt Q96T51); chain QALKGHAWLKDDEATHCRQCEKEFSISRRKHHCRNCGHIFCNTCSSNELALPSYPKPVRVCDSCHTLLLQRCSSTAS
B2: VPS8 RING domain (UniProt Q8N3P4); chain TRGLNPKQDYCSICLQQYKRRQEMADEIIVFSCGHLYHSFCLQNKECTVEFEGQTRWTCYKCSSSNKVGKLSE
B3: ARIH2 RING domain (UniProt O95376); chain HVPTSHPPHHCAVCMQFVRKENLLSLACQHQFCRSCWEQHCSVLVKDGVGVGVSCMAQDCPLRTPEDFVF
B4: RNF182 RING domain (UniProt Q8N6D2); chain AESQASDELECKICYNRYNLKQRKPKVLECCHRVCAKCLYKIIDFGDSPQGVIVCPFCRFETCLPDDEV
B5: RNF6 RING domain (UniProt Q9Y252); chain NSIDSELGKICSVCISDYVTGNKLRQLPCMHEFHIHCIDRWLSENCTCPICRQPVLGSNIAN
B6: TRIM41 RING domain (UniProt Q8WV44); chain PVQTLQEEAVCAICLDYFTDPVSIGCGHNFCRVCVTQLWGGEDEEDRDELDREEEEEDGEEE
Construct (chain): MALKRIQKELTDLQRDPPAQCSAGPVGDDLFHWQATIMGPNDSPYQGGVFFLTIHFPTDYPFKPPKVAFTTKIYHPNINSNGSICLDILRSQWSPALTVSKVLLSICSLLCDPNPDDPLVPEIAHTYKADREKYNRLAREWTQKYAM
B1 (RUFY1 RING domain): 0
B2 (VPS8 RING domain): 0
EIKEYKARLTCPCCNTRKKDAVLTKCFHVFCFECVRGRYEARQRKCPKCNAAFGAHDFHR (RNF40 RING domain (UniProt O75150)): 0
B3 (ARIH2 RING domain): 0
FAEQPSVKLCCQLCCSVFKDPVITTCGHTFCRRCALKSEKCPVDNVKLTVVVNNI (TRAF7 RING domain (UniProt Q6Q0C0)): 0
B4 (RNF182 RING domain): 0
B5 (RNF6 RING domain): 0
B6 (TRIM41 RING domain): 0

Study 3 — action: degrader; method: HiBiT; cells: HEK293; concentration: 10000 nM; measurement: protein remaining
Target: CRBN/Zinc finger protein Helios (Homo sapiens, UniProt Q96SW2+Q9UKS7)
Sequence of UniProt Q96SW2 (whole entry, looked up): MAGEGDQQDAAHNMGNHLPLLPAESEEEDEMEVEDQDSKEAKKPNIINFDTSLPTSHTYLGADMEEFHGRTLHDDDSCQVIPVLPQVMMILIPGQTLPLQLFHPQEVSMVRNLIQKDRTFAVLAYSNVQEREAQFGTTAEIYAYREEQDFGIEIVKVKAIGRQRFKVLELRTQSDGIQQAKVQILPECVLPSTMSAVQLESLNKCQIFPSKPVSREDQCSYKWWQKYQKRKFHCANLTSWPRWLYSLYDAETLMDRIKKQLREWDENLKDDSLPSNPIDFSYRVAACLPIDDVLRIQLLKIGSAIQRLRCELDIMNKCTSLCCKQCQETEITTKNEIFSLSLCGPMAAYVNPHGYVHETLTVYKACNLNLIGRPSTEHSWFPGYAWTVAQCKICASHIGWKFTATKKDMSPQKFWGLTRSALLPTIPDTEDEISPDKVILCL
Sequence of UniProt Q9UKS7 (whole entry, looked up): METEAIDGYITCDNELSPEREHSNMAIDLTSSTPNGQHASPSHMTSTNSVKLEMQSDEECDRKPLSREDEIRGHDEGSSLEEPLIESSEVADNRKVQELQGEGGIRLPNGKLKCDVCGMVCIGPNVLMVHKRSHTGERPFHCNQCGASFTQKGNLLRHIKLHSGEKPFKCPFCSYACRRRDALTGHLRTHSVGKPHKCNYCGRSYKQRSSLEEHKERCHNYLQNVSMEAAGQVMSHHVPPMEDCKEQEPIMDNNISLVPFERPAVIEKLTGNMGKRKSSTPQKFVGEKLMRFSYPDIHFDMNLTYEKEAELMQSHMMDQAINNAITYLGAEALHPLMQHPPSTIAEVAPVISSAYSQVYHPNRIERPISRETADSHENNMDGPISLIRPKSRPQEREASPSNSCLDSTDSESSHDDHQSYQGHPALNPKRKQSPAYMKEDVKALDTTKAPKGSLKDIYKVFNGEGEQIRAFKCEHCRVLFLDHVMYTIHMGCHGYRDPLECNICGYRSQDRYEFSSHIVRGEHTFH
O=C1CCC(N2Cc3c(ccc4c3OCC43CCN(Cc4ccccc4)CC3(F)F)C2=O)C(=O)N1 (stereo not shown): 33.8%
O=C1CCC(N2Cc3c(ccc4c3OCC43CCN(Cc4ccsc4)CC3)C2=O)C(=O)N1 (stereo not shown): 17.4%
O=C1CCC(N2Cc3c(ccc4c3OCC43CCN(CC4CCCCC4)CC3)C2=O)C(=O)N1 (stereo not shown): 31.3%

Mixed results
CC(C)n1nc(O)c2c1NC(=O)CSC2c1ccc(C(=O)O)cc1 (stereo not shown) — remaining compound (human, microsomes or S9; 2 µM, 0.5 h): 78.2%
CCOC(=O)[C@@H]1CSCC(=O)N[C@H](CC)C(=O)N(C)[C@@H](C)C(=O)N[C@@H](CC(C)C)C(=O)N(C)[C@H](C)C(=O)N(CC(C)C)CC(=O)N[C@H](CC(C)C)C(=O)N(C)[C@@H](C)C(=O)N[C@@H](CC(C)C)C(=O)N1C — log k' (60) (PRP-column chromatography): 1.08
CC12CC3(C(=O)Nc4ccc(Cl)cc4C(=O)c4ccccc4)C1CCC23C (stereo not shown) — remaining compound (human, microsomes or S9; 2 µM, 0.5 h): 0%

Repeated from above (study 1):
AEDLADHHV: inactive
RVACRDVEV: inactive
